Measured values of several laboratories.
A part holds a random share of what one study measured.

Study 1
Target: Prothrombin, mature alpha-thrombin (F2, Homo sapiens, UniProt P00734)
Technique: aptamer microarray, sandwich
Molecule type: DNA with 2'F-ANA
Sample: in vitro
Concentration: 200 nM
Setting: whole 15-mer aptamer, many near background
Together with: Cy3 exosite-II aptamer, 400 nM
Reading: higher = stronger binding
Measurement: mean fluorescence intensity
Strand: GGTTGGTGTGGTTGG
2'F-ANA at 3 10 11 12 13 14: 425 a.u.
2'F-ANA at 1 4 6 7 8 9 10 13 14 15: 45.4 a.u.
2'F-ANA at 3 6 9 13 14 15: 425 a.u.
2'F-ANA at 1 2 4 5 6 7 8 10 12 15: 48.2 a.u.
2'F-ANA at 3 8 14 15: 636 a.u.
2'F-ANA at 1 7 11 12 13 14: 68.5 a.u.
2'F-ANA at 1 4 5 7 9 12 13: 67.8 a.u.
2'F-ANA at 1 3 9 10 11 12 14 15: 65.7 a.u.
2'F-ANA at 1 5 9 11 13: 48.3 a.u.
2'F-ANA at 1 2 5 6 7 8 9 12 13 14 15: 50.8 a.u.
2'F-ANA at 3 4 5 6 10 11: 50.7 a.u.
2'F-ANA at 2 3 5 8 11 13 15: 94.6 a.u.
2'F-ANA at 1 3 6 8 9 13 15: 225 a.u.
2'F-ANA at 1 3 4 7 8 10: 78 a.u.
2'F-ANA at 1 2 6 8 9 11 12 15: 251 a.u.
2'F-ANA at 5 8 13 15: 58.6 a.u.

Study 2
Target: Histone acetyltransferase KAT6A, winged helix 1, GST fusion (KAT6A, Homo sapiens, UniProt Q92794, residues 1-85)
Technique: protein binding microarray
Molecule type: double-stranded DNA, one strand shown
Sample: in vitro
Concentration: not given
Setting: 8-mer, flanks averaged, mean of 2 arrays, mostly near background
Baseline: not given
Reading: higher = stronger binding
Measurement: E-score
Construct (chain): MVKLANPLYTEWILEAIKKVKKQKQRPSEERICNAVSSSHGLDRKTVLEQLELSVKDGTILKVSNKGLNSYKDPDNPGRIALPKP
AGCGTTTG: -0.116
GCAGGGAA: -0.119
CACGCGAA: 0.0693
CCGGCCGA: 0.4
GTACGGGA: 0.322
ACATTTAT: -0.0637
GGTGAAGA: 0.0224
CTAAGAAC: -0.14
CCTCCTAC: -0.0762
CACATTCA: -0.144
CCCAGTCC: -0.235
ACATATTG: -0.156
ACAGGGAA: -0.27
CTTACCAC: -0.0298
AACACAAT: -0.291
CTACTATA: -0.116
CGGCATAG: 0.288
GAACTGTA: -0.0186

Study 3
Target: RNA binding protein fox-1 homolog 2, RRM domain, GST-SBP tag (RBFOX2, Homo sapiens, UniProt O43251-10, residues 100-194)
Technique: RNA Bind-n-Seq
Molecule type: RNA
Sample: in vitro
Concentration: 365 nM
Setting: natural RNA segment, single round, ends assumed
Baseline: no-protein control
Reading: higher = stronger binding
Measurement: RBNS enrichment (R)
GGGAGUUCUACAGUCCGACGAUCCUAAUGUGCACCUGUGAGGUGUAACCCCCCGCUUUGGAGACGAGAUGGCUCUUGUUCAGUCAAGACCCCAGACUCUGGCCACAAAAAUGCCAUAAUGCCUGUUGGUAUUUUGGAAUUCUCGGGUGCCAA: 0.414
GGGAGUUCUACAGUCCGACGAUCUCCAGCAACCCCUUACUGCUGUAUAACUUGCAUAAGCCUCCCUGGUGACUCUUGCAGGAACCACUCCAUUGCCCUCCAGCUCCCCAGCCUUCUCAGUUAUAAACAUGCUGUGGAAUUCUCGGGUGCCAA: 0.553
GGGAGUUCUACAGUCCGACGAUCUCGCCUGGAAAAAAGUGCCCAAGCUGCUGACGCAAAAAGAAAAAAAAAAAGAAAGAAAGAUGCUGCUCAUUUGCAUGCUCACUUACAUAUAUUUGCAUGUUCACUGACCCUGGAAUUCUCGGGUGCCAA: 6.11
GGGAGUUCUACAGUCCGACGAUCAAAAUAUAAAAAUUAGCCGGGCUUUGUGGCAUGUGCCUGUAAUCCCAGCUAUUUGGCAGGCUGAGGCAUGAGAAUCGCUUGAACCCAGGAGGUGGAGGUUACAGUGAGCUUGGAAUUCUCGGGUGCCAA: 4.19
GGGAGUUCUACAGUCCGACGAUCAAGCCAACUGACAAAGAUGCAUCACGUGUCUUAGGCUGAUGCCACUACCCGAUUUGUUUAUUUGCAAUUUGAGCCAUUUAAAGACCAAUAAACUUCCUUUUUUAAAAUGUUGGAAUUCUCGGGUGCCAA: 0.5
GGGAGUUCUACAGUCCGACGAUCUGCUCAUGGAAUCCAGUCGAGCAGAAGUUUCGGACAGCCCACCACAUCACCAUGUUCCUUGUUAACAUUUUUCUUUUCGCAGAGAGGAAAAUAUGUUUUUGCUGCUUUAUUGGAAUUCUCGGGUGCCAA: 0.576
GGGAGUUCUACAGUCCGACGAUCUUUUCUAUUUUGAGAAUUAUUUUAAUAUAUAUUUUAAUAUAUAAACUUGUGAGUUAAAUUUUUUUUUUGCAAAAUUAGCACAUGAAAAGAGAUUGAUGGUUUUAAGUAGUUGGAAUUCUCGGGUGCCAA: 3.21
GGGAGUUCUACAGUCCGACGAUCUACGAUUUAAUAAUCGGCCCCUCCCUUCUAUUUGUCGGUUUUAUGUUUCUAUCCUUCAAUAGCUGCACUGUUUUCUAAUGUGCUGUAGAGUUUUUGAAAUAAUUUAUGCAUGGAAUUCUCGGGUGCCAA: 7.6

Study 4
Target: Fragile X messenger ribonucleoprotein 1, C-terminal low-complexity region (Fmr1, Mus musculus, UniProt P35922)
Technique: RNA Bind-n-Seq
Molecule type: RNA
Sample: in vitro
Concentration: 200 nM
Setting: whole 134-nt RNA, ends assumed
Together with: 150 mM LiCl
Baseline: input library
Reading: higher = stronger binding
Measurement: log2 enrichment
All molecules: 7-deaza-guanosine replaces G
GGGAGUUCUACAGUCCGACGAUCAGUCCUGUGCUACACAUCGUAUGUACCGAAUCGGGAAAAAGGGUGGGUUUUUUUGGGAAAGUAUUAUGUUACGCCGUUCGGAUCUGCACUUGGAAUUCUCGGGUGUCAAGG: -2.23
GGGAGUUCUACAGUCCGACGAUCCCUCAAGUCCUGUGCUACACAUCGUAUGUACCGAAUCGGCGGCGGGGCGGGGAAAGUAUUAUGUUACGCCGUUCGGAUCUGCACUUCCAGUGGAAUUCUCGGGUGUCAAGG: -0.053
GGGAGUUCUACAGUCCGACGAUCCAAGUCCUGUGCUACACAUCGUAUGUACCGAAUCGGUUUGGAAAGGUUUUUUUGGAAAGUAUUAUGUUACGCCGUUCGGAUCUGCACUUCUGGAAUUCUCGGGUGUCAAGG: -1.63
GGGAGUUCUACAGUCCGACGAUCUUUCUAGCUGGACCAGUCCGGUACGCUCCGGGCCUCACCGAGGAAGUCCCACCCUGCAGGGGAACCGACUCUGGCCGGCCCUAACCCCUCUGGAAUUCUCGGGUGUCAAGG: 0.701
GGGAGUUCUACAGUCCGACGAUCUCCUGUGCUACACAUCGUAUGUACCGAAUCGGGGUGGGGAAAAAGGGGUUUUUUUGGGGAAAGUAUUAUGUUACGCCGUUCGGAUCUGCAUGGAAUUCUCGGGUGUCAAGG: -0.674
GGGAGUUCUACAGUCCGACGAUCUCCUGUGCUACACAUCGUAUGUACCGAAUCGGGGAAAAAGGGGAAAGGGGAAAAAGGGGAAAGUAUUAUGUUACGCCGUUCGGAUCUGCAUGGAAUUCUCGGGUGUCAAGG: -0.106
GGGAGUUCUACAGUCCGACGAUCUCAAGUCCUGUGCUACACAUCGUAUGUACCGAAUCGGUUUUGGUUUUGGUUUUGGAAAGUAUUAUGUUACGCCGUUCGGAUCUGCACUUCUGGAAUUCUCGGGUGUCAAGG: -1.47
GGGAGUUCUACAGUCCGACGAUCGUCCUGUGCUACACAUCGUAUGUACCGAAUCGGGGAGGGGUUUGGGGAAAAAAAGGGGAAAGUAUUAUGUUACGCCGUUCGGAUCUGCACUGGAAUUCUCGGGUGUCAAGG: -0.678

For quick reference, copied from above (study 2):
CCTCCTAC: -0.0762
GAACTGTA: -0.0186
CTACTATA: -0.116
GGTGAAGA: 0.0224
